Assay results collected from several papers.
Protocols differ between the studies behind these lines. “And” joins repeats or separate records; there may be more than shown. Numbers after ± are the reported error.

SMILES | target or system | test | test system | conditions | scale | measurement | result
Cc1ncsc1-c1ccc(C(C)NC(=O)C2CC(O)CN2C(=O)C(NC(=O)CCCCCCCCCCN2CCCC(Nc3ncc(Cl)c(Nc4ccccc4S(=O)(=O)C(C)C)n3)C2)C(C)(C)C)cc1 (stereo not shown) | 22Rv1 | RNA-seq, refers to: RHBDF2 mRNA |  | concentration not given | reference: DMSO | log2 fold change | -2.3
COC1OC(C)C(OS(=O)(=O)O)C(OC2OC(C)C(OS(=O)(=O)O)C(OC3OC(C)C(OS(=O)(=O)O)C(OS(=O)(=O)O)C3O)C2O)C1O (stereo not shown) |  |  | human plasma | 128 µg/mL | reference: control | prothrombin time prolongation | 0.95 fold
N=C(S)N/N=C/c1ncc(C(F)(F)F)cc1Cl | Mus musculus | gene silencing, high-content imaging | LDR reporter GFP cells | retest run 1 |  | AC50 | 10 µM
C[n+]1ccc(/C=N/NC(=O)c2ccc3ccc4ccc(C(=O)N/N=C/c5cc[n+](C)c6ccccc56)nc4c3n2)c2ccccc21 | MYC parallel G4 DNA | FRET melting |  | 1 µM, DNA 0.2 µM |  | ΔTm | 13 ± 0.5 °C
COC1CN([C@H]2CC[C@H]([C@@]3(C)Oc4c(Cl)cc(C(=O)NCc5c(SC)cc(C)[nH]c5=O)c(C)c4O3)CC2)C1 |  | RNA-seq, refers to: FAM110B | human, whole blood | dose not given, 24 h | reference: pretreatment baseline | log2 fold change | 3.28
CCN(CC)CC(=O)Nc1cccc(-n2cc(-c3ccc4ccc(-c5cn(-c6cccc(NC(=O)CN(CC)CC)c6)nn5)cc4c3)nn2)c1 | RCC4 | PCR angiogenesis array, refers to: JAG1 |  | 5 x IC50, 2 h, normoxia | reference: untreated | fold regulation | -1.14
COc1cccc(/C=N/Nc2nc(Nc3ccccc3)nc(-n3nc(C)cc3C)n2)c1O | Mus musculus | gene silencing, high-content imaging | LDR reporter GFP cells | retest, mean of two runs |  | EC50 | 5.01 µM
CC(C)C[C@H](NC(=O)[C@H](CC(=O)O)NC(=O)CNC(=O)[C@@H](N)CCCNC(=N)N)C(=O)N[C@@H](C)C(=O)N[C@H](C(=O)N[C@@H](CC(C)C)C(=O)N[C@@H](CCCNC(=N)N)C(=O)N[C@@H](CCC(N)=O)C(=O)N[C@@H](CC(C)C)C(=O)N[C@@H](C)C(=O)N[C@@H](CCC(N)=O)C(=O)N[C@@H](CCC(=O)O)C(=O)N[C@@H](CC(=O)O)C(=O)NCC(=O)N[C@H](C(=O)N[C@H](C(=O)NCC(=O)N[C@H](C(=O)N[C@@H](CCCNC(=N)N)C(=O)NCCOCCOCCOCCOCCOCCOCCOCCOCCOCCOCCOCCOCCC(=O)N[C@@H](CS)C(N)=O)C(C)C)C(C)C)C(C)C)[C@@H](C)O |  | ex vivo NIR imaging | NOD/SCID mice, xenograft, H2009 xenograft | intravenous, 30 µg, 24 h | reference: lung | fluorescence signal ratio | 7.6 and 45
C[n+]1cccc2cc(/C=N/NC(=O)C(=O)N/N=C/c3ccc4c(ccc[n+]4C)c3)ccc21 | MYC parallel G4 DNA | FRET melting |  | 1 µM, DNA 0.2 µM, with: duplex DNA competitor 10 µM |  | ΔTm | 3.6 ± 0.5 °C
Nc1ncc(-c2cc(-c3cnn(CC(F)(F)F)c3)ncc2F)nc1C(=O)NC1CNCC(F)C1 (stereo not shown) | MAPKAPK2 | KINOMEscan |  | 1 µM | reference: DMSO control | remaining binding | 85%
O=C(N/N=C/c1ccc(C[n+]2ccccc2)cc1)c1cc(C(=O)N/N=C/c2ccc(C[n+]3ccccc3)cc2)ncn1 | MYC parallel G4 DNA | FRET melting |  | 1 µM, DNA 0.2 µM, with: duplex DNA competitor 10 µM |  | ΔTm | 3 ± 0.1 °C
COc1ccc2c(C)nc(Nc3nc(O)cc(-c4ccccc4)n3)nc2c1 | Mus musculus | gene silencing, high-content imaging | LDR reporter GFP cells | 30 h, confirmation, mean of two runs |  | Emax | 100%
O=C(N/N=C/c1cc[n+](Cc2ccccc2)c2ccccc12)c1ccc2ccc3ccc(C(=O)N/N=C/c4cc[n+](Cc5ccccc5)c5ccccc45)nc3c2n1 | hp2 hairpin duplex DNA | FRET melting |  | 1 µM |  | ΔTm | 1.8 ± 0.2 °C
C=CC(=O)Nc1cccc(Cn2ncc3cnc(Nc4cnn(CCOC)c4)nc32)c1 | INSRR human | binding, KINOMEscan |  | 100 nM | lower = stronger binding | percent of control | 98%
O=C(N/N=C/c1cc[n+](CC2CC2)c2ccccc12)C(=O)N/N=C/c1cc[n+](CC2CC2)c2ccccc12 | hp2 hairpin duplex DNA | FRET melting |  | 1 µM |  | ΔTm | 0.8 ± 0.5 °C
CNS(=O)(=O)Nc1nccc(Cc2c(C)c3ccc(Oc4ncccc4F)cc3oc2=O)c1F | Farage | cell viability, CellTiter-Glo |  | 7 days |  | IC50 | > 1000 nM

For quick reference, copied from above:
SMILES | target or system | test | test system | conditions | scale | measurement | result
N=C(S)N/N=C/c1ncc(C(F)(F)F)cc1Cl | Mus musculus | gene silencing, high-content imaging | LDR reporter GFP cells | retest run 1 |  | AC50 | 10 µM
